Published values gathered from unrelated publications.
A part holds a random share of what one study measured. Changes are numbered by the printed parent chain.

Study 1
Target: Sal-like protein 4, full length isoform A (SALL4, Homo sapiens, UniProt Q9UJQ4, residues 1-1053)
Chain of UniProt Q9UJQ4 (whole entry, looked up): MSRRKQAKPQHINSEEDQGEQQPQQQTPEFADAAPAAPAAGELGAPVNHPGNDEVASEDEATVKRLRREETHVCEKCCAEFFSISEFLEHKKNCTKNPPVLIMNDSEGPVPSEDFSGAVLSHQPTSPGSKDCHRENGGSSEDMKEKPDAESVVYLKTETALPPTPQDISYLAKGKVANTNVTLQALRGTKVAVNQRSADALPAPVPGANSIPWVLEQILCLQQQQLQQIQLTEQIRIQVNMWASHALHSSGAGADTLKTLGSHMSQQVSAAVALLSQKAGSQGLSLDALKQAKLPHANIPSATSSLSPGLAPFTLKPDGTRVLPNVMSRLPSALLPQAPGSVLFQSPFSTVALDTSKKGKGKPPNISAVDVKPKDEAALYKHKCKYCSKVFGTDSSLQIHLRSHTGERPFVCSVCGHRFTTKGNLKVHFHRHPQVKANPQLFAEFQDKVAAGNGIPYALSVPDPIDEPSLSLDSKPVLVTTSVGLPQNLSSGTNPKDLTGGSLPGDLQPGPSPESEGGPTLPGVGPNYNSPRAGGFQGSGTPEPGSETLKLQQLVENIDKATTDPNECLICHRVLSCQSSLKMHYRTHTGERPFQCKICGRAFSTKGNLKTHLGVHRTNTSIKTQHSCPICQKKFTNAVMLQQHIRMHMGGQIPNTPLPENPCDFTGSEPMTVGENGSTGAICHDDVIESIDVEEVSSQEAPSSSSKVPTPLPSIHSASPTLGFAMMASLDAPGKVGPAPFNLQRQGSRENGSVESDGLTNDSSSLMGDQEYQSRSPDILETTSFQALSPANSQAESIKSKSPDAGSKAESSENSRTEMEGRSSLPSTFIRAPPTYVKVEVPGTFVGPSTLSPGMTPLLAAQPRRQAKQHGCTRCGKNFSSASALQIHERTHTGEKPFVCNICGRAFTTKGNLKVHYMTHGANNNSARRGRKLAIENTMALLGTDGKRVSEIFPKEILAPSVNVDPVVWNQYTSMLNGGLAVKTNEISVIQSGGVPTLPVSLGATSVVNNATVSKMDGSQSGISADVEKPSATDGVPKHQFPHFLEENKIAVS
Method: universal PBM
Molecule type: double-stranded DNA, one strand shown
Sample: in vitro
Concentration: 600 nM
Notes: 8-mer, flanks averaged, mean of replicates
Reading: higher = stronger binding
| Strand | E-score |
| --- | --- |
| GTCGGTCA | -0.00619 |
| CCCGTCCA | -0.107 |
| CTTGGTCC | -0.252 |
| CAAGGCCA | -0.0584 |
| CAAAATTG | 0.199 |
| GCGATACC | -0.253 |
| AGACCAAA | 0.0838 |
| ACGTAACG | -0.114 |
| AGACTTGG | -0.107 |
| CATACTTC | 0.21 |
| CGGATCTA | 0.00188 |
| ATCTGTAA | 0.153 |
| CAGCATCC | -0.248 |
| GTCTGCTA | -0.0377 |
| CGAAGAGA | 0.12 |
| ATTACCTA | 0.22 |
| AGACCACG | -0.303 |

Study 2
Target: CCNB2, cyclin fold, Cln2 fusion (human)
Method: yeast growth competition, sequencing
Sample: yeast
Notes: weak parent motif
Baseline: not given
Reading: higher = stronger binding
Starting sequence: CDKN1B docking peptide (human); PSACRNLFGPVDH
| Change | normalised enrichment score |
| --- | --- |
| F8Y | -0.374 |
| G9V | 0.198 |
| G9E | 0.0946 |
| D12Y | 0.379 |
| C4G | -0.282 |
| P1H | 0.132 |
| P10C | -0.0429 |
| L7F | 0.227 |
| H13M | -0.2 |
| S2T | -0.134 |
| L7S | 0.214 |
| D12A | 0.417 |
| V11N | 0.164 |
| C4D | -0.0824 |
| H13Y | 0.0524 |

Study 3
Target: UBE2Q2 UBC core domain (UniProt Q8WVN8)
Chain of UniProt Q8WVN8 (whole entry, looked up): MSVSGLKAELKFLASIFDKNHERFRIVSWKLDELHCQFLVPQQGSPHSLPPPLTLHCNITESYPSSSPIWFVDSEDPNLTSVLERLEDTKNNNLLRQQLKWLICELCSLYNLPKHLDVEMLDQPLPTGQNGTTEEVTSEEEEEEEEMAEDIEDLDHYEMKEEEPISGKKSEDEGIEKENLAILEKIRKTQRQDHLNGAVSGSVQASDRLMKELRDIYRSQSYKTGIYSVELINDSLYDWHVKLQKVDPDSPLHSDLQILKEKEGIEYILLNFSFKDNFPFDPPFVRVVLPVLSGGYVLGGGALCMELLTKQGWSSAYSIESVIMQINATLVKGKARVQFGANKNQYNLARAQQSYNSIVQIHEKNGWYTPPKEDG
Method: yeast two-hybrid
Sample: yeast
Notes: mostly zero background
Baseline: not given
Reading: higher = stronger interaction
B1: TRIM62 RING domain (UniProt Q9BVG3); chain MACSLKDELLCSICLSIYQDPVSLGCEHYFCRRCITEHWVRQEAQGARDCPECRRTFAEPALAP
B2: DTX2 RING domain (UniProt Q86UW9); chain EELKVPPDEDCIICMEKLSTASGYSDVTDSKAIGSLAVGHLTKCSHAFHLLCLLAMYCNGNKDGSLQCPSCKTIYGEKTGTQ
B3: MAP3K1 RING domain (UniProt Q13233); chain NSIKDEEEQMCPICLLGMLDEESLTVCEDGCRNKLHHHCMSIWAEECRRNREPLICPLCRSKWRSHDFYS
B4: DZIP3 RING domain (UniProt Q86Y13); chain PDEEEEEEEPCVICHENLSPENLSVLPCAHKFHAQCIRPWLMQQGTCPTCRLHVLLPEEFP
| Sequence | lacZ reporter activity |
| --- | --- |
| B1 (TRIM62 RING domain) | 0 |
| NLSELTPYILCSICKGYLIDATTITECLHTFCKSCIVRHFYYSNRCPKCNIVVHQTQPLY (PCGF6 RING domain (UniProt Q9BYE7)) | 0 |
| B2 (DTX2 RING domain) | 0 |
| B3 (MAP3K1 RING domain) | 0 |
| B4 (DZIP3 RING domain) | 0 |
| KETIKKTTKPCPRCHVPVEKNGGCMHMKCPQPQCRLEWCWNCGCEWNRVCMG (PRKN RING domain (UniProt O60260)) | 0 |

Study 4
Target: RING finger protein unkempt homolog, zinc fingers 1-6, GST-SBP tag (UNK, Homo sapiens, UniProt Q9C0B0, residues 30-357)
Chain of UniProt Q9C0B0 (30-357, looked up): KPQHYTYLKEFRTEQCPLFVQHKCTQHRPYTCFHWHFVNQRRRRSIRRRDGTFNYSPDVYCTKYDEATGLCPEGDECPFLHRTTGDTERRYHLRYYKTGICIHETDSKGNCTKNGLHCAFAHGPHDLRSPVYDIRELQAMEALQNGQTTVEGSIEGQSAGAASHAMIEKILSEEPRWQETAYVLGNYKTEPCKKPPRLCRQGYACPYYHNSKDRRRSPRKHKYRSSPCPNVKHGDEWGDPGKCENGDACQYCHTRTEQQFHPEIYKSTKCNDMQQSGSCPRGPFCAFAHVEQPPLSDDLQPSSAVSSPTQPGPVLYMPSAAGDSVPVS
Method: RNA Bind-n-Seq
Molecule type: RNA
Sample: in vitro
Concentration: not given
Notes: RNA with constant flanks, ends assumed
Baseline: input RNA pool
Reading: higher = stronger binding
| Strand | bound/input enrichment [ratio] |
| --- | --- |
| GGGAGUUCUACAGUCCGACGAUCUUAUGUCUUAUAAUCCUGCAUCACUUCCAUCCUAUCCAGUCAUAUCUAAUGUAGAAAAAUCCGUUUCCAGUGAAAGUAAUAUGUAGUGCUUUUAUGAUAUUUGUGUGCAAUAUCCCCUCUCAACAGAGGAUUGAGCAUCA | 7.42 |
| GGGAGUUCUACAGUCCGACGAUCAUGAAGCCAAAUAUUGAACCUCCUGAGAAUGUGGAGUGGAGUGGUGCUGAAGCCUCAAUGUUCCGAGUCCUCAUUGGCACUUACUAUGACAAUUUCUGUGCCAUUGCUAGGUUAAUUGGGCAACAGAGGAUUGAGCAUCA | 0.518 |
| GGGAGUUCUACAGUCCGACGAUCACAAUGAAACUAGUCUGGAAAAAAAAACUUGCUUUUUGUUGUAGUUACCACUUAACCCUGCCGUUUAACAAGGAAUGUCUGUGCCAAUAAACCAAUUCUCCCUCUGCUUGACAUUGGCAGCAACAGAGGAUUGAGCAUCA | 0.684 |
| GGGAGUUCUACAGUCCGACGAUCCCAUAGUAUGUGACUCUACAUAACAUACUGAAACUAUUUAUAUUUUCUUUUUUAAGGAUAUUCCGAAAUUUUGUGUAUUAUAUGGAAAAAGAAAAAAAGCUUAAGUCUGUAGUCUUUAUGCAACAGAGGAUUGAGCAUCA | 0.149 |
| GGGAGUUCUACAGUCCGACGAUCGACAUUCUAAUUGGUACAGACUGAAACCUUUAUAGGAGUUAUGCAGUUCAGAAGUGGACUUCCGGUAAGUCAUUUAUUUUAAGCUGUUGAUAUAGAGAUUUAUUUUCUGUAAAUUUUGACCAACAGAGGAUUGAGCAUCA | 0.706 |
| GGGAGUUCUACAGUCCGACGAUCGAAGAACCAAGAGCUUUAUACAUACAUUGUUAUGCACACUUUUUGGAUUUAUCAAUAAUCCGGUUUUGUAAAGAAGUAAAAGAACUCCGAAGUGCUCUAAAAACUCUCAGUUCUUUGUUCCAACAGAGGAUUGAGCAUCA | 0.191 |

Study 5
Target: RNA binding protein fox-1 homolog 2, RRM domain, GST-SBP tag (RBFOX2, Homo sapiens, UniProt O43251-10, residues 100-194)
Method: RNA Bind-n-Seq
Molecule type: RNA
Sample: in vitro
Concentration: 365 nM
Notes: natural RNA segment, single round, ends assumed
Baseline: no-protein control
Reading: higher = stronger binding
Residues (chain): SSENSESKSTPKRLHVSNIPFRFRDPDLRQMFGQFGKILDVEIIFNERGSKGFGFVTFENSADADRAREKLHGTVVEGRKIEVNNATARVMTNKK
| Strand | RBNS enrichment (R) |
| --- | --- |
| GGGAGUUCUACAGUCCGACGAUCCCCAUGGGGGAAGUGCAGGCUCCUUCCUGUGGUGCCUCUUUAUAGCCUCACCACCAUGCUAACACUGAGCAUGGUGAGGAGGAGGAAGCUUUGGCUAGCUAAACAUGUUUUGGAAUUCUCGGGUGCCAA | 0.454 |
| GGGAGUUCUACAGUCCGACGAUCCUCUCACCCCAACCCCCCCAAAACUUUGAACCUAAAUAACCCCUCCCCCAUCCUAAUCAGAGUCAGCACAGCUUUCCUGUCAGAGGAUAGGAACACUUGCUCUUUGAGCCUGGAAUUCUCGGGUGCCAA | 0.778 |
| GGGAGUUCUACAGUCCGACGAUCCUAGUGAGUGGAGGCCAGGGAUGCUGCCCUGCCACUGCCAUUGGGCCUCAGAGCUCAGUCUUGCCAAGGUGGAGAAAUUCUGGUCGAAGAGGUUGACCGGUAGACUGAAGUGGAAUUCUCGGGUGCCAA | 0.564 |
| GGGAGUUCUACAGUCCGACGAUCCCCCGUGAGACGGGGCUUCUGUGUGACCCUUACUUCCUCUGCACACUGGGACCCUUGAGCCAAGGGCAGUCCCUACCAGGUGCCCAAGCCGCAAGUCUCAGGGGGCUUUUUGGAAUUCUCGGGUGCCAA | 0.348 |
| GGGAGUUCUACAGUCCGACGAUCUAUAUGAUUGCUACUCUAAAGGUUUGGAUAUAUGUAUUGUAAUUAGAAUUGUUGGCAUGAUGACAUUUCAUUUGUGCCAAAAAUAUUAAAAAUGCCUUUUUUGGAAGGACUGGAAUUCUCGGGUGCCAA | 0.71 |
| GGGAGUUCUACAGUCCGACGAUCGUAAGCAUGCAUGGAGGCCUCGAGGCACCACAACAAGGCCAGGUUCUUAGCACAUCCUCUGUUCUCUACCUGUCAUGCUUCAAGAGUUCCAGCUGGCCUGCUGUGAAGCCUGGAAUUCUCGGGUGCCAA | 19 |

Study 6
Target: TAR DNA-binding protein 43, full length, His tag (TARDBP, Homo sapiens, UniProt Q13148, residues 1-414)
Method: RNA Bind-n-Seq
Molecule type: RNA
Sample: in vitro
Concentration: 20 nM
Notes: 6-mer, flanks averaged, single round
Together with: 150 mM KCl
Baseline: input library
Reading: higher = stronger binding
| Strand | 6-mer enrichment (R) |
| --- | --- |
| UAGUGC | 0.794 |
| UGUGCA | 0.982 |
| UGGAGG | 3.67 |
| CCGACA | 0.681 |
| CUGCUU | 0.619 |
| GUGGAC | 1.5 |
| CAUGUU | 0.664 |
| GAAGGG | 4.44 |
| UCAGUA | 0.63 |
| UGUGAC | 0.843 |

Study 7
Target: Centromere-binding protein 1, full length, His-tagged (CBF1, Saccharomyces cerevisiae, UniProt P17106, residues 1-351)
Chain of UniProt P17106 (whole entry, looked up): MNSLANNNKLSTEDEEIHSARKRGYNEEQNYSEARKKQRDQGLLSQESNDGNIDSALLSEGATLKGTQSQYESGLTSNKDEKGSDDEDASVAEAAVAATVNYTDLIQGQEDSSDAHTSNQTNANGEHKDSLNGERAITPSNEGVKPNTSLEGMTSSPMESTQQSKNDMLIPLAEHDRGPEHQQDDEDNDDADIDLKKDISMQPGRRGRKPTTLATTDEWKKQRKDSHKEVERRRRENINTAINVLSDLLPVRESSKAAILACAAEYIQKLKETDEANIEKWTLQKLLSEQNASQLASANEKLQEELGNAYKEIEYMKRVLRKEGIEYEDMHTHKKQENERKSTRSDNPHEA
Method: competition protein-binding microarray
Molecule type: double-stranded DNA, one strand shown
Sample: in vitro
Concentration: 2 µM
Notes: whole 60-bp probe, lowest competitor level
Together with: Pho4 competitor, 0.05 µM
Reading: higher = stronger binding
| Strand | fluorescence intensity |
| --- | --- |
| AACTATGAGTACAGGCATGTGATGTTACCTAAGGCCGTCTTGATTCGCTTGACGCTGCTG | 393 a.u. |
| CTTCTGTAAATTTGCTCAGTGGGTGGACGCGCCCCGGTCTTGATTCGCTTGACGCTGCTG | 83.2 a.u. |
| CTTCTGTAAATTTGTCACTGAACTTGACGCGCCCCGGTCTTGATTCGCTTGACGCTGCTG | 66 a.u. |
| CCTCAGGAGCGCCGCCATGTGGGATGGAATAGCACAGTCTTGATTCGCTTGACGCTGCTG | 63.2 a.u. |
| TGCGCAACAACTTGTCACATTACTTTATGTCTAGAAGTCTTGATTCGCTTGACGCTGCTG | 152 a.u. |
| TTTGTGGCTTAGCATCTCGTGAGGATATGGAAGACTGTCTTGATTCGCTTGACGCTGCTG | 116 a.u. |
| ACCCCATTATCTGGAGGCGTGCCGACAGCTCCGTTGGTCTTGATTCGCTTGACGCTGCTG | 75.3 a.u. |
| CATTCTGCCACTGACCACGTGGTAACGCCAACTACGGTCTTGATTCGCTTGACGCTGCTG | 2300 a.u. |
| ATGAAGATTCTTGTTCATGTGATACAGCTTTTCTAGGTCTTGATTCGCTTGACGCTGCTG | 621 a.u. |
| TGCCTTTCTGAAACGAATGTGACGGATACAGATACCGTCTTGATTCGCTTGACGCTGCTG | 77.2 a.u. |
| CGTCCTAGTGATTGGCTCGTGGGTGCCATGAGGAAGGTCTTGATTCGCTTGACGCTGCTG | 87.8 a.u. |
| CCCTCCCAGTTCTCGCGCGTGTGGAGAGTGGGTTCTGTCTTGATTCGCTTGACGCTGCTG | 63 a.u. |
| CTTTCCCGATCTTGAAACGTGGGTGTAGCACATTTGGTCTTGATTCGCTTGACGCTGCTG | 88.6 a.u. |
| TCCTCCCAGACGGGAAACGTGTCGGTCGCTTCTGTTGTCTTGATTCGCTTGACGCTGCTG | 68.8 a.u. |
| GGTAATCCCTAAGAACACATGCCCATAGTGGAAGATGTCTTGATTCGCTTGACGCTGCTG | 133 a.u. |
| TCAAGTAGAATACTACACGTGCAAACGGTAGCAAGCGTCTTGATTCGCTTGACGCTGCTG | 1150 a.u. |
| GATCCTCGCCTGGGTGGCGTGCTTTGTGGTGAATGCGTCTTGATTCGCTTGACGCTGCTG | 89.6 a.u. |
| GTCTTGTCTCATTTTCACGTGATTTTCCCCACTTCAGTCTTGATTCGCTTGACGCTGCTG | 2430 a.u. |
| AGACTGAAAGTTTTGCATGATCAATTTCTCTCATTGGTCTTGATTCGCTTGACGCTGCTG | 81.1 a.u. |
| GTATTTCCGGTATCGCACGTGGTGATGGATTTGATCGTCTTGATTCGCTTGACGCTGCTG | 1060 a.u. |
| CCCGGACATGTACGCCAGGTGATGTTCCATTTGCCAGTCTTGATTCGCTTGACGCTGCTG | 90.7 a.u. |

Excerpt of the above (study 1):
| Strand | E-score |
| --- | --- |
| CAAGGCCA | -0.0584 |
| AGACCACG | -0.303 |
| GTCTGCTA | -0.0377 |
| AGACCAAA | 0.0838 |
| ACGTAACG | -0.114 |
| CTTGGTCC | -0.252 |
